Results gathered from unrelated publications.
A part holds a random share of what one study measured. ± marks the error that the study gave.

The chains behind the UniProt entries cited, without tags or fusion partners. Residues count along the entry.
UniProt P19111, 20-533 limits assumed: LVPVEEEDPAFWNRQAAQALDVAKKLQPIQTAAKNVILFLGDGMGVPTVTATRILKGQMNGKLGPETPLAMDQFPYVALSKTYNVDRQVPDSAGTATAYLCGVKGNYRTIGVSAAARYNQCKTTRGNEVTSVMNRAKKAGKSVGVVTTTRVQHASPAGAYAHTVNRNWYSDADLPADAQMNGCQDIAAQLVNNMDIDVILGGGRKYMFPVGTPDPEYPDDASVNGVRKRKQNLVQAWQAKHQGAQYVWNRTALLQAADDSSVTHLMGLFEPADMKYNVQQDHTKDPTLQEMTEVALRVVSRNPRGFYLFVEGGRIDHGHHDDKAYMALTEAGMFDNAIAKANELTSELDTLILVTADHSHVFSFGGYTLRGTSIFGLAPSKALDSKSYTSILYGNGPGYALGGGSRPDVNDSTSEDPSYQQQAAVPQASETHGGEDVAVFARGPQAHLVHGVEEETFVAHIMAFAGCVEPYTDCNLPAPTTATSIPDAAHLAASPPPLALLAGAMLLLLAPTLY
UniProt P37136, 32-614 limits assumed: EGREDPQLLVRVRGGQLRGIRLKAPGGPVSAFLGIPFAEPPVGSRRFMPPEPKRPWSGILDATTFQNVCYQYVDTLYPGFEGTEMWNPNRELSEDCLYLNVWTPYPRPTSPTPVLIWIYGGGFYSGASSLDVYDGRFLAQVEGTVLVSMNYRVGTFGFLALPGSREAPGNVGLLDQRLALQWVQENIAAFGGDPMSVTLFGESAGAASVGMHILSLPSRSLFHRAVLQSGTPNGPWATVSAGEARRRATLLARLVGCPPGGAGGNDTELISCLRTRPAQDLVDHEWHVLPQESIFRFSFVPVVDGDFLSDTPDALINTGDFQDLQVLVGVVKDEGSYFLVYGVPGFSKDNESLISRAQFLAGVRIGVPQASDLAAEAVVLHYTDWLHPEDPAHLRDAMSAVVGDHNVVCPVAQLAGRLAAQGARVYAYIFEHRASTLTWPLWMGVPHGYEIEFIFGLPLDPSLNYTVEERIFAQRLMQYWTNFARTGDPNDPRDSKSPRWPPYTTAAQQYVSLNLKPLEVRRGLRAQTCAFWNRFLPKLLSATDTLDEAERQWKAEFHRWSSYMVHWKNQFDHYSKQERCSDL

Sample 1
Organism: SARS-CoV-2
Observed: viral replication
Cells: Vero
Tested at: 1 µM
Structure (SMILES)	inhibition [%]
Cc1nn(-c2ccc(Cl)cc2)c2c1C(c1cccc(Cl)c1Cl)C(C#N)=C(N)O2 (stereo not drawn)	7.42
Cc1nn(-c2ccc(Cl)cc2)c2c1C(c1ccc([N+](=O)[O-])cc1)C(C#N)=C(N)O2 (stereo not drawn)	18.6
COc1cc(C2C(C#N)=C(N)Oc3c2c(C)nn3-c2ccc(Cl)cc2)ccc1O (stereo not drawn)	23.4

Mixed results
Structure (SMILES)	target	assay	system	setting	IC50 [µM]
C[C@H](NC(=O)[C@@H](c1cccnc1)N(C(=O)CC#N)c1ccc(-c2ccccc2)cc1)c1ccccc1	Replicase polyprotein 1ab, main protease (rep, Severe acute respiratory syndrome coronavirus 2, UniProt P0DTD1)	enzyme activity, inhibitor			0.5
COc1ccccc1N1CC2=C(C1=O)C(c1ccccc1O)NC(=O)N2 (stereo not drawn)	Intestinal-type alkaline phosphatase (ALPI, Bos taurus, UniProt P19111)	enzyme activity		pH 9.5, with: p-nitrophenyl phosphate 0.5 mM	2.13 ± 0.034
COP(=O)(OC)Oc1ccc([N+](=O)[O-])cc1Cl	Acetylcholinesterase (Ache, Rattus norvegicus, UniProt P37136)	inhibitor	rat, postnatal day 1, rat serum		0.094

For quick reference, copied from above (sample 1):
Structure (SMILES)	inhibition [%]
Cc1nn(-c2ccc(Cl)cc2)c2c1C(c1cccc(Cl)c1Cl)C(C#N)=C(N)O2 (stereo not drawn)	7.42
